# Results from different studies.
# Protocols differ between the studies behind these lines. ± gives the spread as reported.
# CHRM5: Muscarinic acetylcholine receptor M5 (CHRM5, Homo sapiens, UniProt P08912)
# Chain of UniProt P08912 (whole entry, looked up): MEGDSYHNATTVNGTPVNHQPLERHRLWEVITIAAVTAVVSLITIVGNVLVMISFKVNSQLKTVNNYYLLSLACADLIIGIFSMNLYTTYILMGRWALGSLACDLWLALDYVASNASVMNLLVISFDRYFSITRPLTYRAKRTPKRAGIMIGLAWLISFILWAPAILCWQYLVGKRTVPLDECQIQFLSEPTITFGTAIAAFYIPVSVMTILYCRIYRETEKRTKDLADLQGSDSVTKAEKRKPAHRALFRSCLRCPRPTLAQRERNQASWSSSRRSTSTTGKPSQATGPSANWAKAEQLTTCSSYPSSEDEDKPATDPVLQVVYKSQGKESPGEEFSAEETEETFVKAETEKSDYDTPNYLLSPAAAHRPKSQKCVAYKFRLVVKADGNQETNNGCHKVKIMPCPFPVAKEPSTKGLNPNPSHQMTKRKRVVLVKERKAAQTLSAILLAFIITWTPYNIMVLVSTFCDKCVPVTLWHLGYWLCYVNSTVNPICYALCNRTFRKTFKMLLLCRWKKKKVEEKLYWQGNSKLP
# NTSR1: Neurotensin receptor type 1 (NTSR1, Homo sapiens, UniProt P30989)
# Chain of UniProt P30989 (whole entry, looked up): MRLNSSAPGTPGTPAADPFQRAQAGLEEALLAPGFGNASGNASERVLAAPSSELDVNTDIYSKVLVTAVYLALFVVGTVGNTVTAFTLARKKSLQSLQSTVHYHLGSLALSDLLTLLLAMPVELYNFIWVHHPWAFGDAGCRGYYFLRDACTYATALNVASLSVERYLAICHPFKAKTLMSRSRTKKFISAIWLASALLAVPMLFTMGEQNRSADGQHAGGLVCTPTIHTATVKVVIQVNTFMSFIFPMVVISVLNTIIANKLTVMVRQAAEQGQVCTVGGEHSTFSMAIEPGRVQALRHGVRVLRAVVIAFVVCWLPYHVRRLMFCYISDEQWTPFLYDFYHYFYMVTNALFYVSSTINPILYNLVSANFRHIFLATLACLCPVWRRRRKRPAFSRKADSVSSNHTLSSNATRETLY
# TDP1: Tyrosyl-DNA phosphodiesterase 1 (TDP1, Homo sapiens, UniProt Q9NUW8)
# Chain of UniProt Q9NUW8 (whole entry, looked up): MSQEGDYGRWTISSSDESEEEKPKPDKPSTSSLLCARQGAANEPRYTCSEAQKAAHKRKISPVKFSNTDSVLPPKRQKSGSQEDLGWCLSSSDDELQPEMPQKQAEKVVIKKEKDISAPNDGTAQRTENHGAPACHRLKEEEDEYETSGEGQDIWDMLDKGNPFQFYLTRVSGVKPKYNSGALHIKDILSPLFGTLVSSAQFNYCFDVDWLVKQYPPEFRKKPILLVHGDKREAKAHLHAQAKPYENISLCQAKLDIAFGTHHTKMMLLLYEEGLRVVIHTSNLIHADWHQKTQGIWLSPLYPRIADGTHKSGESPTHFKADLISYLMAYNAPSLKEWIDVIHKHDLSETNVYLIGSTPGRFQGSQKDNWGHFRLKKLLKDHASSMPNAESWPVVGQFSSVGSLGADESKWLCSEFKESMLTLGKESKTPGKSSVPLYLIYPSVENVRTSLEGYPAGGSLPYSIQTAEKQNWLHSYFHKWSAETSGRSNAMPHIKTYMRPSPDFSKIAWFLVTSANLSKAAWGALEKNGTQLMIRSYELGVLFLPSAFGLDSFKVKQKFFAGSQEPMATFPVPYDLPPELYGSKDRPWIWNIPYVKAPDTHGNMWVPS
# C3ar1: C3a anaphylatoxin chemotactic receptor (C3ar1, Mus musculus, UniProt O09047)
# Chain of UniProt O09047 (whole entry, looked up): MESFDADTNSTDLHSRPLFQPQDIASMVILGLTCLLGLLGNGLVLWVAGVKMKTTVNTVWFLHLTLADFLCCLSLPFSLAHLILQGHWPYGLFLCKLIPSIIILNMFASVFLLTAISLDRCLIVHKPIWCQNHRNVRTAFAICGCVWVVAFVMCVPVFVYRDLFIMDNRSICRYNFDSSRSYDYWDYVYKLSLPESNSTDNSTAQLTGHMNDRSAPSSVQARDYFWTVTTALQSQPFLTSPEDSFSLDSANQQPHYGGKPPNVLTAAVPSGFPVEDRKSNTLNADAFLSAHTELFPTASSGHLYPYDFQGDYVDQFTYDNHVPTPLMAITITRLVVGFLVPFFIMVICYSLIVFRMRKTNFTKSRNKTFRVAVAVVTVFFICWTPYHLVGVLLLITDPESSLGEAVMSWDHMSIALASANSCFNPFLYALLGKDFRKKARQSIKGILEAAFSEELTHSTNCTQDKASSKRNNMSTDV
# Chain of UniProt Q9NSD7 (whole entry, unmodified, looked up): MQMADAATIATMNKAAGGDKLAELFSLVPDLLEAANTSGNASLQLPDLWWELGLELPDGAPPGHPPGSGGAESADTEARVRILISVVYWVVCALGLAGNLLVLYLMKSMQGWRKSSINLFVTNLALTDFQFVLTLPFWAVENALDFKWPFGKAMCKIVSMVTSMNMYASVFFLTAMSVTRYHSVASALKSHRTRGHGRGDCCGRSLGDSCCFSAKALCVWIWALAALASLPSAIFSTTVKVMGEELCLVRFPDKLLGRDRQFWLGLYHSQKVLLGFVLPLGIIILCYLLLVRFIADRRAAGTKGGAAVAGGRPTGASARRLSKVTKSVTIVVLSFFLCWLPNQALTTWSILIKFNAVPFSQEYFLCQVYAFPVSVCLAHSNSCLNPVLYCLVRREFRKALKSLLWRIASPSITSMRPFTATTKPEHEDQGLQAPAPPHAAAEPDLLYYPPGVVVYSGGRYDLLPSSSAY
# Chain of UniProt Q8TDS7 (whole entry, looked up): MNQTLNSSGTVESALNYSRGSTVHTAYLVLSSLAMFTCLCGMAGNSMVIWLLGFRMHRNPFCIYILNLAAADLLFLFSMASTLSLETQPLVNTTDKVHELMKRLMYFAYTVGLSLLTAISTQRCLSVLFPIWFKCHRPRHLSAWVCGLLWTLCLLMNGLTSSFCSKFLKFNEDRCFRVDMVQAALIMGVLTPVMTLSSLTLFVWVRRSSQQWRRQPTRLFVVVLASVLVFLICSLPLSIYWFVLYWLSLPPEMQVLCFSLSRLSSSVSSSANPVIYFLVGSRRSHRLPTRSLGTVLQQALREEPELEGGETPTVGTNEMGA
# Chain of UniProt P20309 (whole entry, looked up): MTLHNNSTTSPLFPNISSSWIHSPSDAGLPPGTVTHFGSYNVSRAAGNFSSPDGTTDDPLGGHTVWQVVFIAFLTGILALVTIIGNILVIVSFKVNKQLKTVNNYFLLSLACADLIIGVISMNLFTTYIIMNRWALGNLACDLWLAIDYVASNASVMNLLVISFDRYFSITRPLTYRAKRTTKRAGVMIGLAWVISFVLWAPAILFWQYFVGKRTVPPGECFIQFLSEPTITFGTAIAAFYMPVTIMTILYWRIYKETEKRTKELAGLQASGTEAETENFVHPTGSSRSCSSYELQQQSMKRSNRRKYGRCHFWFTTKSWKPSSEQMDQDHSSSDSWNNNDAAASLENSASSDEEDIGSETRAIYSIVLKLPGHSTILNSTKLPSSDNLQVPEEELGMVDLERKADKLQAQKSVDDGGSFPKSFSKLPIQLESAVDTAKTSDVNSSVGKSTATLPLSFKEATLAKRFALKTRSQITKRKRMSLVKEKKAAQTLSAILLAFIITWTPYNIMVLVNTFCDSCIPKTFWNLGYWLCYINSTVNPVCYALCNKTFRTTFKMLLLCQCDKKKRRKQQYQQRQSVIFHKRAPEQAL
# Chain of UniProt P34972 (whole entry, unmodified, looked up): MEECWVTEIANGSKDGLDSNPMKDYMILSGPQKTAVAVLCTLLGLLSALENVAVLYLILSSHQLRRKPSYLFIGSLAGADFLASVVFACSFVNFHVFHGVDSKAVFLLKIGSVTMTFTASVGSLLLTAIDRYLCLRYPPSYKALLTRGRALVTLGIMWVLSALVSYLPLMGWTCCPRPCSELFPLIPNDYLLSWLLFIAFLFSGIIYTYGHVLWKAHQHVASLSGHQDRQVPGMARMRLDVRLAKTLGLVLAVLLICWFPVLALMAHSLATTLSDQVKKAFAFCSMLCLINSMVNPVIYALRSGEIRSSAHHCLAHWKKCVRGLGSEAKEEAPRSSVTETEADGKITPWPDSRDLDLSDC
# Chain of UniProt Q8TDU9 (whole entry, unmodified, looked up): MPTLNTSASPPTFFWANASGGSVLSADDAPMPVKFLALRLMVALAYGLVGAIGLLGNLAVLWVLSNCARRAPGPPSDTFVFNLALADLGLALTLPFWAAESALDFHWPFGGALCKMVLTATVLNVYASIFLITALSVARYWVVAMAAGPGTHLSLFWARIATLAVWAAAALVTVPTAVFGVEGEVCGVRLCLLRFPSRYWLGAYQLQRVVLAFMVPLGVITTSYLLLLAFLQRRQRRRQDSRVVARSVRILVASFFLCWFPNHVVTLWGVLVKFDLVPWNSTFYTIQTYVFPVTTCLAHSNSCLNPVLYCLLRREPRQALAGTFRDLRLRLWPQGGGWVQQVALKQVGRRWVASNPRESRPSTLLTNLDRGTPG
# Chain of UniProt Q969F8 (whole entry, unmodified, looked up): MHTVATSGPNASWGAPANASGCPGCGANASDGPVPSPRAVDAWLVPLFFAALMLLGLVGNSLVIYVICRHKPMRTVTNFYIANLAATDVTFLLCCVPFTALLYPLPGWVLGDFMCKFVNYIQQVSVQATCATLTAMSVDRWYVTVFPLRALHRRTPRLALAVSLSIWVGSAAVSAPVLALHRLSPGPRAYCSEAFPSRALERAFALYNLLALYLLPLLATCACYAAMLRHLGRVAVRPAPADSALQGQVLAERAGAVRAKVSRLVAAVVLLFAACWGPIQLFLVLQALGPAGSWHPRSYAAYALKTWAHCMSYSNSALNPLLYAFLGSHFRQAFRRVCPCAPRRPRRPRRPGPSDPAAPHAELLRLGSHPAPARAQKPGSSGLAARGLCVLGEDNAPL
Structure (SMILES),target or system,test,system,setting,scale,quantity,value
COC1CN([C@H]2CC[C@H]([C@@]3(C)Oc4c(Cl)cc(C(=O)NCc5c(SC)cc(C)[nH]c5=O)c(C)c4O3)CC2)C1,,"RNA-seq, measured: LAMA5","human, whole blood","dose not given, 24 h",relative to: pretreatment baseline,log2 fold change,1.3
C=CCn1c(=O)c2ccccc2n2c(SCC(=O)Nc3ccc(NC(C)=O)cc3)nnc12,CHRM5,"receptor activation, agonist",,"concentration not given, 16 h",,Emax,< 100%
COc1ccccc1C1CCN(c2nc(C3(F)CCCC3)nc3ccc(N(C)CCO)cc23)CC1,NTSR1,"β-arrestin recruitment, agonist",HEK-293T,,,Emax,106%
CCc1cc(O)cc2c(/C=N/NC(=N)NCCc3ccc(Cl)cc3)c[nH]c12,"RXFP3 (Homo sapiens, UniProt Q9NSD7, S163A)",,HEK-293T,,relative to: wild type,Emax,65.3 ± 6.13%
CCSc1c(C=NOCc2ccc3nc(-c4ccccc4)c(Nc4ccc(C(=O)O)cc4)n3c2)c2ccccc2n1C (mixture of isomers),TDP1,"enzyme activity, inhibitor",,"100 µM, unpurified compound",,inhibition,58.8%
COc1ccccc1C1CCN(c2nc(C3CC3)nc3c(C)cc(N(C)CCO)cc23)CC1,NTSR1,"β-arrestin recruitment, agonist",HEK-293T,,,Emax,89.6%
CCCC[C@H](NC(=O)[C@H](CC(C)C)NC(=O)[C@H](CO)NC(=O)[C@H](CO)NC(=O)[C@H](C)NC(=O)[C@H](CO)NC(=O)[C@H](C)N)C(=O)N[C@@H](CC(=O)O)C(=O)N[C@@H](CCCCN)C(=O)N[C@@H](CCC(=O)O)C(=O)N[C@@H](C)C(=O)N[C@H](C(=O)N[C@@H](Cc1ccc(O)cc1)C(=O)N[C@@H](Cc1ccccc1)C(=O)N[C@@H](C)C(=O)N[C@@H](Cc1c[nH]cn1)C(=O)N[C@@H](CC(C)C)C(=O)N[C@@H](CC(=O)O)C(=O)N[C@H](C(=O)N[C@H](C(=O)N[C@@H](Cc1c[nH]c2ccccc12)C(=O)O)[C@@H](C)CC)[C@@H](C)CC)C(C)C,"EDNRB (Homo sapiens, UniProt P24530)",agonist,HEK293,ETBR/ETAR ratio 1:0.5,,Emax,80 ± 6%
CC(C)C[C@H](NC(=O)[C@@H](N)[C@@H](C)O)C(=O)N[C@@H](CCC(N)=O)C(=O)N1CCC[C@H]1C(=O)N1CCC[C@H]1C(=O)N[C@@H](C)C(=O)N[C@@H](CO)C(=O)N[C@@H](CO)C(=O)N[C@@H](CCCNC(=N)N)C(=O)N[C@@H](CCCNC(=N)N)C(=O)N[C@@H](CCCNC(=N)N)C(=O)N[C@@H](Cc1c[nH]cn1)C(=O)N[C@@H](Cc1ccccc1)C(=O)N[C@@H](Cc1c[nH]cn1)C(=O)N[C@@H](Cc1c[nH]cn1)C(=O)N[C@@H](C)C(=O)N[C@@H](CC(C)C)C(=O)N1CCC[C@H]1C(=O)N1CCC[C@H]1C(=O)N[C@@H](C)C(=O)N[C@@H](CCCNC(=N)N)C(=O)O,C3ar1,"GoA protein dissociation, agonist, NanoBiT",,,relative to: TLQP-21,Emax,37.2 ± 1.08%
CCCCCCOc1ccc(C(=O)OCCN2CC=CCC2)cc1,"CHRM3 (Homo sapiens, UniProt P20309)",,membranes,"10 µM, 15 h, added: carbachol",relative to: control,Emax,1.46 ± 0.07 fold
C=CCn1c(=O)c2ccccc2n2c(SCC(=O)NCc3ccc(NC(C)=O)cc3)nnc12,CHRM5,"receptor activation, agonist",,"concentration not given, 16 h",,Emax,108 ± 2%
COc1ccccc1C1CCN(c2nc(C3(F)CC3)nc3ccc(N(C)CCN4CCOCC4)cc23)CC1,NTSR1,"β-arrestin recruitment, agonist",HEK-293T,,,Emax,83.9%
CCCCOc1ccc(C(=O)OCC[N+]2(C)CC=CCC2)cc1 (stereo not drawn),CHRM5,,membranes,"1 µM, 15 h, added: carbachol",relative to: control,Emax,1.48 ± 0.08 fold
Cc1ncsc1-c1ccc(C(C)NC(=O)C2CC(O)CN2C(=O)C(NC(=O)CCCCCCCCCCN2CCCC(Nc3ncc(Cl)c(Nc4ccccc4S(=O)(=O)C(C)C)n3)C2)C(C)(C)C)cc1 (stereo not drawn),22Rv1,"RNA-seq, measured: POLD3 mRNA",,concentration not given,relative to: DMSO,log2 fold change,-1.53
COc1ccc(C2(C(=O)N3CCC(Nc4nc5ccccc5c(=O)[nH]4)CC3)CC2)cc1,"MRGPRD, part with Gi1 (Homo sapiens, UniProt Q8TDS7)","Gi1 dissociation, agonist, BRET2",,,relative to: wild type,Emax,87.8 ± 16.4%
CCCCOc1ccc(C(=O)OCCN2CC=CCC2)cc1,CHRM5,,membranes,"10 µM, 15 h, added: carbachol",relative to: control,Emax,1.64 ± 0.06 fold
O=C1C[C@H](c2nc(-c3ccc(F)c4cn[nH]c34)no2)CCCN1c1ccc(F)cc1 (racemic),"CNR2 (Homo sapiens, UniProt P34972, H95A)","cAMP, agonist, luciferase",,,,Emax,50.3%
COc1ccccc1C1CCN(c2nc(C3(F)CC3)nc3cnc(N(C)CCO)cc23)CC1,NTSR1,"β-arrestin recruitment, agonist",HEK-293T,,,Emax,95.4%
Cc1cc(C(c2ccc(Cl)cc2)c2ccc(Cl)cc2)sc1C(=O)N[C@@H](CCCN=C(N)N)C(=O)O,C3ar1,"cAMP response, agonist, GloSensor cAMP",,Gi signalling,,Emax,51.1 ± 1.38%
CCCCCCOc1ccc(C(=O)OCC[N+]2(C)CC=CCC2)cc1 (stereo not drawn),CHRM5,,membranes,"1 µM, 15 h, added: carbachol",relative to: control,Emax,1.35 ± 0.06 fold
CNC(=N)NCCC[C@H](NC(=O)[C@H](CC(C)C)NC(=O)NNC(=O)[C@H](Cc1ccccc1)NC(=O)[C@@H](NC(=O)[C@H](CC(N)=O)NC(=O)[C@@H]1C[C@@H](O)CN1C(=O)[C@@H](Cc1ccc(O)cc1)NC(C)=O)[C@@H](C)O)C(=O)N[C@@H](Cc1c[nH]c2ccccc12)C(N)=O,"KiSS-1 receptor (KISS1R, Homo sapiens, UniProt Q969F8, H152A)","inositol phosphate, agonist",HEK293,,,Emax,96.5%
COc1ccccc1C1CCN(c2nc(C3CCCC3)nc3ccc(N(C)CCO)cc23)CC1,NTSR1,"β-arrestin recruitment, agonist",HEK-293T,,,Emax,115%
Nc1ncc(-c2cc(-c3cnn(CC(F)(F)F)c3)ncc2F)nc1C(=O)NC1CNCC(F)C1 (stereo not drawn),CSK,KINOMEscan,,1 µM,relative to: DMSO control,remaining binding,100%
CC[C@H](C)[C@@H]1NC(=O)[C@H](Cc2ccccc2)NC(=O)[C@H](CCC(=O)O)NC(=O)[C@H](CCCNC(=N)N)NC(=O)CNC(=O)[C@@H](NC(=O)[C@H](CC(C)C)NC(=O)[C@H](CCCNC(=N)N)NC(=O)[C@@H](NC(=O)CNC(=O)[C@H](Cc2ccc(O)cc2)NC(=O)[C@@H]2CCCN2C(=O)[C@H](C)NC(=O)[C@H](C)NC(=O)[C@@H](N)CCCNC(=N)N)C(C)C)CSSC[C@@H]2NC(=O)[C@@H](NC(=O)[C@H](CO)NC(=O)[C@H](CO)NC(=O)[C@H](CO)NC(=O)[C@H](CC(C)C)NC(=O)CNC(=O)[C@H](C)NC(=O)[C@H](CC(C)C)NC(=O)[C@@H](NC(=O)[C@@H](N)CC(=O)O)C(C)C)CSSC[C@H](NC(=O)CNC(=O)[C@H](Cc3c[nH]c4ccccc34)NC(=O)[C@H](CCCCN)NC2=O)C(=O)N[C@@H](CO)C(=O)N[C@@H](CCCCN)C(=O)N[C@@H](CO)C(=O)N[C@@H](CCC(=O)O)C(=O)N[C@@H]([C@@H](C)CC)C(=O)N[C@@H](CO)C(=O)N[C@@H](CO)C(=O)N[C@@H](CC(C)C)C(=O)N[C@H](C(=O)O)CSSC[C@@H](C(=O)NCC(=O)NCC(=O)N[C@@H](CO)C(=O)N[C@@H](CCCNC(=N)N)C(=O)N[C@@H](Cc2c[nH]c3ccccc23)C(=O)O)NC(=O)[C@H]([C@@H](C)O)NC(=O)[C@H](Cc2ccccc2)NC(=O)[C@H]([C@@H](C)CC)NC(=O)[C@H](C(C)C)NC(=O)[C@H](C)NC(=O)[C@H](CCCNC(=N)N)NC1=O,"RXFP4 (Homo sapiens, UniProt Q8TDU9, F105A)",,HEK-293T,,relative to: wild type,Emax,76.3 ± 6.64%
O=C(O)c1ccc(Nc2c(-c3ccc(CON=CCc4ccccc4)cc3)nc3cc(-c4ccccc4)ccn23)cc1,TDP1,"enzyme activity, inhibitor",,"100 µM, unpurified compound",,inhibition,38.6%

# For quick reference, copied from above:
Structure (SMILES),target or system,test,system,setting,scale,quantity,value
CCCCCCOc1ccc(C(=O)OCCN2CC=CCC2)cc1,"CHRM3 (Homo sapiens, UniProt P20309)",,membranes,"10 µM, 15 h, added: carbachol",relative to: control,Emax,1.46 ± 0.07 fold
CC(C)C[C@H](NC(=O)[C@@H](N)[C@@H](C)O)C(=O)N[C@@H](CCC(N)=O)C(=O)N1CCC[C@H]1C(=O)N1CCC[C@H]1C(=O)N[C@@H](C)C(=O)N[C@@H](CO)C(=O)N[C@@H](CO)C(=O)N[C@@H](CCCNC(=N)N)C(=O)N[C@@H](CCCNC(=N)N)C(=O)N[C@@H](CCCNC(=N)N)C(=O)N[C@@H](Cc1c[nH]cn1)C(=O)N[C@@H](Cc1ccccc1)C(=O)N[C@@H](Cc1c[nH]cn1)C(=O)N[C@@H](Cc1c[nH]cn1)C(=O)N[C@@H](C)C(=O)N[C@@H](CC(C)C)C(=O)N1CCC[C@H]1C(=O)N1CCC[C@H]1C(=O)N[C@@H](C)C(=O)N[C@@H](CCCNC(=N)N)C(=O)O,C3ar1,"GoA protein dissociation, agonist, NanoBiT",,,relative to: TLQP-21,Emax,37.2 ± 1.08%
